# Published values collected from several papers.
# Lines come from different studies, so protocols differ. ± marks the error that the study gave.
Compound,assay,test system,conditions,scale,quantity,result
CCN(CC)c1ccc2c(-c3ccccc3C(=O)OCCOCC[18F])c3ccc(=[N+](CC)CC)cc-3oc2c1,,"rat, bone",1 h,,tracer uptake,0.77 %ID/g
COc1ccc2c3c(c4cc(OC)c(OC)cc4c2c1)CN1CCCC1C3OC(C)=O (stereo not drawn),,swine cells,24 (unit not given),,CC50,> 100 µM
C/C(=N\OCCCN1CCCCC1)c1ccc(C(F)(F)F)cc1,,liver microsomes,,reference: human over mouse,metabolic stability ratio,~3 fold
CC(C)[C@H](NC(=O)CNC(=O)[C@H](CCC(N)=O)NC(=O)[C@H](C)N)C(=O)O,,healthy male volunteers,"intravenous infusion, dose not given, experimental endotoxaemia, all doses",,tolerability,not toxic
[11CH3]n1c(=O)n(CCCO)c(=O)c2c1nc(Oc1cccc(OC(F)(F)F)c1)n2Cc1ccc(Cl)cc1,ex vivo biodistribution,"Sprague Dawley rat, liver",60 min post injection,,tracer uptake,2.22 ± 0.42 %ID/g
O=c1c(-c2cnn(-c3ccc(Cl)cc3)c2)c(C(F)(F)F)oc2c(O)c(O)ccc12,,mouse,"intraperitoneal, 100 mg/kg, 24 h",,trough concentration,89 nM
O=C(CN1CCN(c2cc3c(cc2F)c(=O)c(C(=O)O)cn3C2CC2)CC1)Nc1ccc(Cl)cc1,,BALB/c mice female,"intravenous, 3.75 mg/kg",,Vss,2.33 mL
CCCCCCCC(=O)OC[C@H](NC(=O)[C@H](CO)NC(=O)CN)C(=O)N[C@@H](Cc1ccccc1)C(=O)N[C@@H](CC(C)C)C(=O)N[C@@H](CO)C(=O)N1CCC[C@H]1C(=O)N[C@@H](CCC(=O)O)C(=O)N[C@@H](Cc1cnc[nH]1)C(=O)N[C@@H](CCC(N)=O)C(=O)N[C@@H](CCCNC(=N)N)C(=O)N[C@H](C(=O)N[C@@H](CCC(N)=O)C(=O)N[C@@H](CCC(N)=O)C(=O)N[C@@H](CCCNC(=N)N)C(=O)N[C@@H](CCCCN)C(=O)N[C@@H](CCC(=O)O)C(=O)N[C@@H](CO)C(=O)N[C@@H](CCCCN)C(=O)N[C@@H](CCCCN)C(=O)N1CCC[C@H]1C(=O)N1CCC[C@H]1C(=O)N[C@@H](C)C(=O)N[C@@H](CCCCN)C(=O)N[C@@H](CC(C)C)C(=O)N[C@@H](CCC(N)=O)C(=O)N1CCC[C@H]1C(=O)N[C@@H](CCCNC(=N)N)C(=O)O)C(C)C,,"human, plasma","intravenous infusion, 3 µg/kg/h, 65 min infusion",,dose-normalised Cmax,3.91 ± 0.79
C[C@@H]1CC[C@H]2[C@@H](C)CO[C@@H]3O[C@@]4(C)CC[C@@H]1[C@]32OO4,refers to: compound,"rat, plasma","50.0 ng/mL spiked, 24 h, autosampler at 4 °C",,measured concentration,46.7 ± 2.04 ng/mL
CCCCCCCC(=O)NCCCC[C@H](NC(=O)[C@H](Cc1ccccc1)NC(=O)[C@@H](CCCNC(=N)N)NC(=O)[C@@H](N)Cc1ccc(O)cc1)C(N)=O,,"mouse, CD-1, male, brain","intravenous, 3 mg/kg",,MRT,2.42 h
COc1ccc(C)cc1NC(=O)OC1CC2CCCC(C1)N2Cc1ccc(CC[18F])cc1 (stereo not drawn),,"BALB/c mice, EMT6 tumour, brain",2 h,,tissue uptake,1.16 ± 0.09 %ID/g
Cc1cc(Nc2nc(C[C@@]3(C(=O)O)CCN(Cc4cccc(Cl)c4F)[C@H](C)C3)cc(C)c2F)n[nH]1,,"Sprague-Dawley rat, both sexes, plasma","intravenous, 0.5 mg/kg",,clearance,0.729 mL/min/kg
CC[C@@H](C)[C@@H](NC(=O)[C@@H](C)NC(=O)[C@@H](CCCCN)NC(=O)[C@@H](CC(C)C)NC(=O)[C@@H](C)NC(=O)[C@H](NC(=O)[C@@H](Cc1c[nH]cn1)NC(=O)[C@@H](CC(C)C)NC(=O)[C@H](NC(=O)[C@H](NC(=O)[C@@H](CCCCN)NC(=O)[C@@H](CCCCN)NC(=O)[C@@H](C)NC(=O)[C@@H](CO)NC(=O)[C@@H](CCCCN)NC(=O)[C@@H](Cc1ccccc1)NC(=O)[C@H](NC(=O)[C@@H](CCCCN)NC(=O)[C@@H](CC(C)C)NC(=O)[C@@H](Cc1ccccc1)NC(=O)[C@@H](CO)NC(=O)[C@@H](CCCCN)NC(=O)[C@@H](Cc1c[nH]c2ccccc12)NC(=O)[C@@H](CCCCN)NC(C)=O)[C@H](C)O)[C@H](C)O)C(C)C)[C@H](C)O)C(=O)N[C@H](CO)C(=O)N[C@H](CO)C(N)=O,circular dichroism,benign aqueous buffer,"pH 7.0, 5 °C, at 222 nm",negative is more helical,mean residue molar ellipticity,1150 deg cm2/dmol
CC(=O)[CH](C(C)=O)[Pt-2]1([S+](C)C)[O]C(C)=CC(C)=[O+]1 (stereo not drawn),general toxicity,mouse,"intravenous, single dose",,MTD,50 mg/kg
CC(C)[C@H](NC(=O)CNC(=O)[C@H](CCC(N)=O)NC(=O)[C@H](C)N)C(=O)O,,human,3 mg/kg single dose,,discontinuation due to adverse events,0%
CC(C)[C@@H]1NC(=O)[C@H](Cc2ccccc2)NC(=O)[C@H](Cc2ccc(O)cc2)NC(=O)CCSSC[C@@H](C(=O)N2CCC[C@H]2C(=O)N[C@H](CCCNC(=N)N)C(=O)NCC(N)=O)NC(=O)[C@H](CCC(N)=O)NC1=O,,"Wistar rat, blood","intravenous, 1 µg/kg single dose, 72 h",,haematocrit,40 ± 1.6%
CN(C)C(CNC(=O)Nc1cc(C(F)(F)F)ccc1N1CCOCC1)c1ccncc1 (stereo not drawn),,"mouse, serum","intraperitoneal, 360 mg/kg single dose",,serum creatinine,1 mg/dL
CC[C@H](C)C(=O)N1CCC(NC(=O)Nc2ccc(OC(F)(F)F)c(F)c2)CC1,,healthy volunteers,"oral, 8 mg single dose",,subjects with trichomoniasis TEAE,0%
CCCCCCCCCCCCC(=O)O.O=C1CCCC2C3CCCN4CCCC(CN12)C34 (stereo not drawn),electrical conductivity,water,"313.15 K, critical micelle concentration",,standard entropy of micellization,109 J/(mol·K)
CN1Cc2c(Cl)cc(Cl)cc2[C@H](c2ccc(S(=O)(=O)NCCOCCOCCNC(=O)CCC(=O)NCCOCCOCCNS(=O)(=O)c3ccc([C@@H]4CN(C)Cc5c(Cl)cc(Cl)cc54)cc3)cc2)C1,,"Sprague Dawley rat male, feces","oral, 0.1 mg/kg, up to 72 h",reference: dose,fecal recovery of parent,46 ± 8%
CC[C@H](C)[C@H](NC(=O)CNC(=O)[C@H](Cc1ccccc1)NC(=O)[C@H](CCCCN)NC(=O)[C@H](CCCCN)NC(=O)[C@H](CCCNC(=N)N)NC(=O)[C@H](CCCNC(=N)N)NC(=O)[C@H](CCCNC(=N)N)NC(=O)[C@H](CCC(N)=O)NC(=O)[C@H](CCCNC(=N)N)NC(=O)[C@H](CCCNC(=N)N)NC(=O)[C@H](CCCCN)NC(=O)[C@H](CCCCN)NC(=O)[C@H](CCCNC(=N)N)NC(=O)CNC(=O)[C@@H](N)Cc1ccc(O)cc1)C(=O)N[C@H](C(=O)N[C@@H](CC(N)=O)C(=O)N[C@@H](CO)C(=O)N[C@@H](CCC(N)=O)C(=O)N[C@@H](CC(C)C)C(=O)N[C@@H](CCCCN)C(=O)N1CCC[C@H]1C(=O)O)[C@@H](C)O,derivative UV-vis spectrophotometry,DMPC:Chol large unilamellar vesicles vs PBS,"30 min, pH 7.4, 37 °C, lipid ratio 85:15",,partition coefficient Kp,1280 ± 91

# Repeated from above:
Compound,assay,test system,conditions,scale,quantity,result
COc1ccc2c3c(c4cc(OC)c(OC)cc4c2c1)CN1CCCC1C3OC(C)=O (stereo not drawn),,swine cells,24 (unit not given),,CC50,> 100 µM
CCCCCCCC(=O)NCCCC[C@H](NC(=O)[C@H](Cc1ccccc1)NC(=O)[C@@H](CCCNC(=N)N)NC(=O)[C@@H](N)Cc1ccc(O)cc1)C(N)=O,,"mouse, CD-1, male, brain","intravenous, 3 mg/kg",,MRT,2.42 h
CCCCCCCC(=O)OC[C@H](NC(=O)[C@H](CO)NC(=O)CN)C(=O)N[C@@H](Cc1ccccc1)C(=O)N[C@@H](CC(C)C)C(=O)N[C@@H](CO)C(=O)N1CCC[C@H]1C(=O)N[C@@H](CCC(=O)O)C(=O)N[C@@H](Cc1cnc[nH]1)C(=O)N[C@@H](CCC(N)=O)C(=O)N[C@@H](CCCNC(=N)N)C(=O)N[C@H](C(=O)N[C@@H](CCC(N)=O)C(=O)N[C@@H](CCC(N)=O)C(=O)N[C@@H](CCCNC(=N)N)C(=O)N[C@@H](CCCCN)C(=O)N[C@@H](CCC(=O)O)C(=O)N[C@@H](CO)C(=O)N[C@@H](CCCCN)C(=O)N[C@@H](CCCCN)C(=O)N1CCC[C@H]1C(=O)N1CCC[C@H]1C(=O)N[C@@H](C)C(=O)N[C@@H](CCCCN)C(=O)N[C@@H](CC(C)C)C(=O)N[C@@H](CCC(N)=O)C(=O)N1CCC[C@H]1C(=O)N[C@@H](CCCNC(=N)N)C(=O)O)C(C)C,,"human, plasma","intravenous infusion, 3 µg/kg/h, 65 min infusion",,dose-normalised Cmax,3.91 ± 0.79
